Experimental data of several laboratories.
Each numbered part is a random draw from the data of one study; scales do not carry over between parts.

Set 1
Target: Histone acetyltransferase KAT6A, both winged helices, GST fusion (KAT6A, Homo sapiens, UniProt Q92794, residues 1-181)
Technique: protein binding microarray
Form: double-stranded DNA, one strand shown
Sample: in vitro
Concentration: not given
Setting: 8-mer, flanks averaged, mean of 2 arrays, mostly near background
Baseline: not given
Reading: higher = stronger binding
Residues (chain): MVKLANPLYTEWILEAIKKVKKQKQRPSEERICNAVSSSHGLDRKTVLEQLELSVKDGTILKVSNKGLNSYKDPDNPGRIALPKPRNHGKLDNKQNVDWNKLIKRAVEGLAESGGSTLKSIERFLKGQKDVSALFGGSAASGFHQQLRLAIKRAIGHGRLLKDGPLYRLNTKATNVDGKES
| Oligonucleotide | E-score |
| --- | --- |
| ATTGTAAC | -0.0249 |
| GCACGTGC | 0.0777 |
| AATTATTA | 0.0472 |
| ACTGTATA | -0.15 |
| ATGGCGAA | 0.0492 |
| ACGGTATC | 0.173 |

Set 2
Target: Ras GTPase-activating protein-binding protein 1, C-terminal RGG region (G3BP1, Homo sapiens, UniProt Q13283)
Sequence of UniProt Q13283 (whole entry, looked up): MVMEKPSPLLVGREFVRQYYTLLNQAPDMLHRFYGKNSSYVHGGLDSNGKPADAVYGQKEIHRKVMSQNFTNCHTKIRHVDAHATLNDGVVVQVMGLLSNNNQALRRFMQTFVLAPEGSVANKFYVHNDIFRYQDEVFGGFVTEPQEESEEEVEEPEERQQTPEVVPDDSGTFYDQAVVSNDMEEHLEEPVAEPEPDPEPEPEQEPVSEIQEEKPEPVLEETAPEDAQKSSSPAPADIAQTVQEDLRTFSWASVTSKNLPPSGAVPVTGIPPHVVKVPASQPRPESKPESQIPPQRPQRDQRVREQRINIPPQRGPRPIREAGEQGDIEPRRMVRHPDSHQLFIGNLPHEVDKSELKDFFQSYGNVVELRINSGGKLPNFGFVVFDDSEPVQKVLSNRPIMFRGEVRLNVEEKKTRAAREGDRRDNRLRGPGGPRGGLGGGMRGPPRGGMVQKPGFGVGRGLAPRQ
Technique: RNA Bind-n-Seq
Form: RNA
Sample: in vitro
Concentration: 1 µM
Setting: whole 134-nt RNA, ends assumed
With: 150 mM KCl
Baseline: input library
Reading: higher = stronger binding
| Oligonucleotide | log2 enrichment |
| --- | --- |
| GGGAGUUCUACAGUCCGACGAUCCAAGUCCUGUGCUACACAUCGUAUGUACCGAAUCGGGCCCGGGCCCGGCCCGGGGAAAGUAUUAUGUUACGCCGUUCGGAUCUGCACUUCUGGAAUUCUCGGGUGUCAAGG | -2.07 |
| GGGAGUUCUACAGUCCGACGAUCUUAAAACAUGGCAACUUGUAAUUGUUUUCUUUCUUAGGAACAUCAUUCAUGGCAGUGAUUCAGUAAAAAGUGCUGAAAAAGAAAUCAGCCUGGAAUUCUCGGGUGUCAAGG | -0.712 |
| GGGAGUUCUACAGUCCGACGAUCUGGAAGGUGGAUUUUGUUUAUUUUUUUAGCUCAUUUCCAGGGGUGGGAAUUUUUUUUUAAUAUGUGUCAUGAAUAAAGUUGUUUUUGAAAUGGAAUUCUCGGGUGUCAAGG | 3.67 |
| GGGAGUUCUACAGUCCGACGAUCAAAAAAAGUGUGUAUUAGGAGGAGAGAGAGGAAAAAAAGAGGAAAGAAGGAAAAAAAAAAGAAUUAAAAAAAAAAAAAAGAAAAACAGAAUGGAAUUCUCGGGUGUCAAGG | -0.233 |
| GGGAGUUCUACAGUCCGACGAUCCAAGUCCUGUGCUACACAUCGUAUGUACCGAAUCGGUUUGGGUUUGGGGUUUGGGGAAAGUAUUAUGUUACGCCGUUCGGAUCUGCACUUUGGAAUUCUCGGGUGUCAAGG | -0.709 |
| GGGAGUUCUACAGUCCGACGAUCUCCUCAAGUCCUGUGCUACACAUCGUAUGUACCGAAUCGGAAAGGUGGAGGAAAGUAUUAUGUUACGCCGUUCGGAUCUGCACUUCCAGCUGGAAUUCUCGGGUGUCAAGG | -1.26 |
| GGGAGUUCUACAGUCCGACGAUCAGUCCUGUGCUACACAUCGUAUGUACCGAAUCGGGGAAAAAGGGGUGGGGUUUGGGGAAAGUAUUAUGUUACGCCGUUCGGAUCUGCACUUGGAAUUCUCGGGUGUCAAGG | 0.937 |
| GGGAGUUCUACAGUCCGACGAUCUGGGAGGUGGAUUUUGUUUAUUUUUUUAGCUCAUUUCUAGGGGUGGGAAUUUUUUUUUAAUAUGUGUCAUGAAUAAAGUUGUUUUUGAAAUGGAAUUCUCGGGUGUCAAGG | 3.8 |
| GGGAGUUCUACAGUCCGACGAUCCACAGACAACACGCACCCACACAGACGCAGAGGGAAGGGGUUGGGAUGGGGACAGGGUGCACAGCAGGGCGGGGUAGGACCCCAGCCCCUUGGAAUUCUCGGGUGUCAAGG | -0.0804 |

Set 3
Target: Phosphate system positive regulatory protein PHO4, full length, GST-tagged (PHO4, Saccharomyces cerevisiae, UniProt P07270, residues 1-312)
Technique: competition protein-binding microarray
Form: double-stranded DNA, one strand shown
Sample: in vitro
Concentration: 2 µM
Setting: whole 60-bp probe, lowest competitor level
With: Cbf1 competitor, 0.05 µM
Reading: higher = stronger binding
Target sequence (chain): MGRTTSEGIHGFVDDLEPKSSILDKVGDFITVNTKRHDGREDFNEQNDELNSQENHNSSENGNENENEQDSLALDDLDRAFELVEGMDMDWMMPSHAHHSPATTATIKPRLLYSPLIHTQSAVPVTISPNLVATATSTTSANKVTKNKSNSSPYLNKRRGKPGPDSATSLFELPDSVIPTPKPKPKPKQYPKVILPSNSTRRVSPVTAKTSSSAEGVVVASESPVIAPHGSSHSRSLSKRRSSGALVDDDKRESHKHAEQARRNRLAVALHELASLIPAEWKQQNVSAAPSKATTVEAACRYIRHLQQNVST
| Oligonucleotide | fluorescence intensity |
| --- | --- |
| CTTCTGTAAATTTGAGGCGTGGGTGGACGCGCCCCGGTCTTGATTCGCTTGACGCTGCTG | 7910 a.u. |
| CTTCTGTAAATTTGGCTGGTGGGTGGACGCGCCCCGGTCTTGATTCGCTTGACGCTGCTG | 4860 a.u. |
| AAATTACTAAGTTGTACTGTGGGTGACGCCGTATGAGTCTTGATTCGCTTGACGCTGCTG | 4170 a.u. |
| TTACTTTTTCAAAGACTCGTGCTTTCTATTGCATAAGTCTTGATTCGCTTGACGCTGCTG | 11700 a.u. |
| TAATATTTGTAAAAGCACGTGATGGTGCCTTTTTCTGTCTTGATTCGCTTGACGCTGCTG | 17200 a.u. |

Mixed results
| Molecule | target | test | test system | conditions | scale | measurement | value |
| --- | --- | --- | --- | --- | --- | --- | --- |
| PhoQ, residues 284 288 289 292 302 303 SVTLVV | PhoP, residues 12 14 15 18 19 LYHSL (Escherichia coli, UniProt P23836) | Sort-seq, measured: YFP reporter | E. coli | PhoQ-PhoP variant library, with: 10 µM Mg2+ | baseline: high Mg2+ state, higher = stronger signaling | fold induction | 2.64 |

For quick reference, copied from above (set 2):
| Oligonucleotide | log2 enrichment |
| --- | --- |
| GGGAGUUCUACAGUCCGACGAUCAGUCCUGUGCUACACAUCGUAUGUACCGAAUCGGGGAAAAAGGGGUGGGGUUUGGGGAAAGUAUUAUGUUACGCCGUUCGGAUCUGCACUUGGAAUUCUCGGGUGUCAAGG | 0.937 |
| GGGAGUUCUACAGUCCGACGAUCUGGGAGGUGGAUUUUGUUUAUUUUUUUAGCUCAUUUCUAGGGGUGGGAAUUUUUUUUUAAUAUGUGUCAUGAAUAAAGUUGUUUUUGAAAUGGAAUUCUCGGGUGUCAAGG | 3.8 |
